Results of several laboratories.
Every numbered part comes from another study and shows a few of its results, in no order. “And” joins repeats or separate records; there may be more than shown.

Study 1
SMILES: CCS(=O)(=O)c1cc2cc(C[C@@](O)(CC(C)(C)c3ccc(F)cc3C(N)=O)C(F)(F)F)[nH]c2cn1
Concentration: 1 µM
Measurement: remaining binding
target = Serine/threonine-protein kinase Chk1 (CHEK1, Homo sapiens, UniProt O14757); effect on = cell-free assay; method = competition with immobilised ligand; result = 100%
target = G protein-coupled receptor kinase 3 (GRK3, Homo sapiens, UniProt P35626); effect on = cell-free assay; method = competition with immobilised ligand; result = 73%
target = Receptor-type tyrosine-protein kinase FLT3 (FLT3, Homo sapiens, UniProt P36888, R834Q); effect on = cell-free assay; method = competition with immobilised ligand; result = 78%
target = Serine/threonine-protein kinase MRCK gamma (CDC42BPG, Homo sapiens, UniProt Q6DT37); method = competition binding; result = 96%
target = Receptor-type tyrosine-protein kinase FLT3 (FLT3, Homo sapiens, UniProt P36888, N841I); effect on = cell-free assay; method = competition with immobilised ligand; result = 100%
target = Testis-specific serine/threonine-protein kinase 1 (TSSK1B, Homo sapiens, UniProt Q9BXA7); effect on = cell-free assay; method = competition with immobilised ligand; result = 96%
target = Cyclin-dependent kinase 4 (CDK4, Homo sapiens, UniProt P11802); effect on = cell-free assay; method = competition with immobilised ligand; result = 81%
target = LIM domain kinase 2 (LIMK2, Homo sapiens, UniProt P53671); effect on = cell-free assay; method = competition with immobilised ligand; result = 100%
target = Ribosomal protein S6 kinase alpha-2, C-terminal kinase domain (RPS6KA2, Homo sapiens, UniProt Q15349); effect on = cell-free assay; method = competition with immobilised ligand; result = 0%
target = Cyclin-dependent kinase 13 (CDK13, Homo sapiens, UniProt Q14004); effect on = cell-free assay; method = competition with immobilised ligand; result = 91%
target = Receptor-type tyrosine-protein kinase FLT3 (FLT3, Homo sapiens, UniProt P36888, D835H); effect on = cell-free assay; method = competition with immobilised ligand; result = 100%
target = Tyrosine-protein kinase ABL1, phosphorylated (ABL1, Homo sapiens, UniProt P00519, M351T); effect on = cell-free assay; method = competition with immobilised ligand; result = 96%
target = Mast/stem cell growth factor receptor Kit (KIT, Homo sapiens, UniProt P10721); effect on = cell-free assay; method = competition with immobilised ligand; result = 100%
target = Activin receptor type-2A (ACVR2A, Homo sapiens, UniProt P27037); effect on = cell-free assay; method = competition with immobilised ligand; result = 94%
target = Membrane-associated tyrosine- and threonine-specific cdc2-inhibitory kinase (PKMYT1, Homo sapiens, UniProt Q99640); effect on = cell-free assay; method = competition with immobilised ligand; result = 67%
target = Serine/threonine-protein kinase STK11 (STK11, Homo sapiens, UniProt Q15831); effect on = cell-free assay; method = competition with immobilised ligand; result = 100%
target = Beta-adrenergic receptor kinase 1 (GRK2, Homo sapiens, UniProt P25098); effect on = cell-free assay; method = competition with immobilised ligand; result = 50%
target = Ankyrin repeat and protein kinase domain-containing protein 1 (ANKK1, Homo sapiens, UniProt Q8NFD2); effect on = cell-free assay; method = competition with immobilised ligand; result = 70%
target = Proto-oncogene tyrosine-protein kinase receptor Ret (RET, Homo sapiens, UniProt P07949); effect on = cell-free assay; method = competition with immobilised ligand; result = 100%
target = Serine/threonine-protein kinase Nek4 (NEK4, Homo sapiens, UniProt P51957); effect on = cell-free assay; method = competition with immobilised ligand; result = 91%
target = Serine/threonine-protein kinase pim-3 (PIM3, Homo sapiens, UniProt Q86V86); effect on = cell-free assay; method = competition with immobilised ligand; result = 100%
target = Mitotic checkpoint serine/threonine-protein kinase BUB1 (BUB1, Homo sapiens, UniProt O43683); effect on = cell-free assay; method = competition with immobilised ligand; result = 66%
target = Tyrosine-protein kinase Fer (FER, Homo sapiens, UniProt P16591); effect on = cell-free assay; method = competition with immobilised ligand; result = 74%
target = LIM domain kinase 1 (LIMK1, Homo sapiens, UniProt P53667); effect on = cell-free assay; method = competition with immobilised ligand; result = 100%

Study 2
Cell line: mouse MPNST tumor cells
Method: high-content immunofluorescence imaging
Item: nuclear SOX9
Concentration: 10 µM
Time: 12 h
Notes: mean of 2 replicates
Baseline: DMSO control
Direction: higher = more nuclear SOX9
Measurement: nuclear SOX9 intensity
Structure (SMILES) = COc1ccc(-n2c(SCc3nc(-c4ccc(C)cc4)no3)nnc2-c2ccncc2)cc1; result = 87 % of DMSO
Structure (SMILES) = Cc1noc(C)c1Cn1cc(C#N)c2cc(Oc3ccc(NC(=O)[C@@H]4CCCN4)cc3)ccc21; result = 109 % of DMSO
Structure (SMILES) = N#Cc1c(NC(=O)c2cccc3ccccc23)sc2c1CCCC2; result = 221 % of DMSO
Structure (SMILES) = N#C[C@@H]1C[C@@H]2C[C@@H]2N1C(=O)[C@@H](N)C12CC3CC(CC(O)(C3)C1)C2; result = 123 % of DMSO and 90.9 % of DMSO
Structure (SMILES) = O=C(O)c1ccccc1C(=O)Nc1ccc(S(=O)(=O)Nc2nccs2)cc1; result = 85.7 % of DMSO
Structure (SMILES) = CC(=O)O[C@]1(C(C)=O)CC[C@H]2[C@@H]3C=C(C)C4=CC(=O)CC[C@@H]4[C@H]3CC[C@@]21C; result = 88.4 % of DMSO
Structure (SMILES) = N[C@@H](CC(=O)Nc1ccc(Oc2cc(F)c(F)cc2Br)cc1)C(=O)O; result = 104 % of DMSO
Structure (SMILES) = Nc1nc(O)c2ncn(CCC(CO)CO)c2n1; result = 93.2 % of DMSO

Study 3
Method: PRP chromatography estimate
Medium: 1,9-decadiene/PBS
pH: 7.4
Measurement: logD
SMILES = CC(C)C[C@@H]1NC(=O)[C@H](C)NC(=O)[C@H](CC(C)C)NC(=O)[C@@H](CCC(=O)N2CCCC2)NC(=O)[C@H](CC(C)C)NC(=O)[C@@H](CC(C)C)NC(=O)[C@H](CC(C)C)NC1=O; result = -0.472
SMILES = CC(C)C[C@@H]1NC(=O)[C@H](C(C)C)NC(=O)[C@H](Cc2cscn2)NC(=O)[C@@H](CC(C)C)NC(=O)[C@H](C(C)C)NC(=O)[C@H](CC(C)C)NC(=O)[C@@H](CC(C)C)NC1=O; result = 0.709
SMILES = CC(C)C[C@@H]1NC(=O)[C@H](C)NC(=O)[C@@H](CC(C)C)NC(=O)[C@H](CC(C)C)NC(=O)[C@@H](Cc2cscn2)NC(=O)[C@H](CC(C)C)NC(=O)[C@@H](CC(C)C)NC1=O; result = -0.141
SMILES = CC(C)C[C@@H]1NC(=O)[C@H](Cc2cscn2)NC(=O)[C@H](CC(C)C)NC(=O)[C@H](C(C)C)NC(=O)[C@H](CC(C)C)NC(=O)[C@@H](CC(C)C)NC(=O)[C@H](CC(C)C)NC1=O; result = 1.1
SMILES = CC(C)C[C@@H]1NC(=O)[C@H](CC(C)C)NC(=O)[C@@H](CC(C)C)NC(=O)[C@H](C(C)C)NC(=O)[C@H](C(C)C)NC(=O)[C@H](Cc2cscn2)NC(=O)[C@H](C)NC1=O; result = -0.678
SMILES = CCC[C@@H]1NC(=O)CSC[C@@H](C(=O)OCC)N(C)C(=O)[C@H](CC(C)C)NC(=O)[C@@H](C)N(C)C(=O)[C@H](CC(C)C)NC(=O)[C@H](C)N(C)C(=O)[C@@H]2CCCN2C(=O)[C@@H](CC(C)C)NC(=O)CN(C)C1=O; result = -0.532
SMILES = CC(C)C[C@@H]1NC(=O)[C@H](CCC(=O)N2CCCC2)NC(=O)[C@@H](C(C)C)NC(=O)[C@H](C(C)C)NC(=O)[C@H](CC(C)C)NC(=O)[C@@H](CC(C)C)NC(=O)[C@H](CC(C)C)NC1=O; result = 0.311
SMILES = CC(C)C[C@@H]1NC(=O)[C@H](C)NC(=O)[C@H](C(C)C)NC(=O)[C@H](C)NC(=O)[C@H](C)NC(=O)[C@H](CC(C)C)NC(=O)[C@H](CC(C)C)NC1=O; result = -2.57
SMILES = CC(C)C[C@@H]1NC(=O)[C@H](Cc2cscn2)NC(=O)[C@@H](CC(C)C)NC(=O)[C@H](CC(C)C)NC(=O)[C@@H](CCC(=O)N2CCCC2)NC(=O)[C@H](CC(C)C)NC(=O)[C@@H](CC(C)C)NC1=O; result = 0.18
SMILES = CC(C)C[C@@H]1NC(=O)[C@H](CC(C)C)NC(=O)[C@@H](CC(C)C)NC(=O)[C@H](CC(C)C)NC(=O)[C@@H](CCC(=O)N2CCCC2)NC(=O)[C@H](Cc2cscn2)NC(=O)[C@H](C)NC1=O; result = -1.45
SMILES = CC(C)C[C@@H]1NC(=O)[C@H](C)NC(=O)[C@H](Cc2cscn2)NC(=O)[C@H](CC(C)C)NC(=O)[C@@H](CCC(=O)N2CCCC2)NC(=O)[C@H](CC(C)C)NC(=O)[C@@H](CC(C)C)NC1=O; result = -1.41

Study 4
Structure (SMILES): C[C@@H]1CN(c2ccc(-c3cc(C(=O)NCCOCCOCCOCCOCCNC(=O)Cn4cc(-c5[nH]cc(C(=O)N[C@@H](CC(N)=O)c6ccc(F)c(Cl)c6)c5-c5ccc(Cl)cc5F)cn4)ccc3F)cc2NC(=O)c2c[nH]c(=O)cc2C(F)(F)F)C[C@H](C)N1C
Action: degrader
Time: 24 h
Measurement: remaining protein level
WDR5/DCAF1: WDR5/DCAF1 (Homo sapiens, UniProt P61964+Q9Y4B6)
WDR5: WD repeat-containing protein 5 (WDR5, Homo sapiens, UniProt P61964)
target = WDR5/DCAF1; method = HiBiT luminescence; concentration = 2 nM; result = 106% and 97.3% and 105%
target = WDR5; method = Jess capillary immunoassay; item = WDR5 over vinculin; concentration = 60.3 nM; baseline = DMSO; result = 91.8% and 106% and 119%
target = WDR5; method = Jess capillary immunoassay; item = WDR5 over vinculin; concentration = 2 nM; baseline = DMSO; result = 122% and 119% and 93.7%
target = WDR5/DCAF1; method = HiBiT luminescence; concentration = 13.3 nM; result = 98.7% and 90.7% and 101%
target = WDR5/DCAF1; method = HiBiT luminescence; concentration = 227 nM; result = 88.2% and 82.9% and 75.1%
target = WDR5; method = Jess capillary immunoassay; item = WDR5 over vinculin; concentration = 4270 nM; baseline = DMSO; result = 79.8% and 93.6% and 122%
target = WDR5; method = Jess capillary immunoassay; item = WDR5 over vinculin; concentration = 777 nM; baseline = DMSO; result = 104% and 74.9% and 89.5%

Excerpt of the above (study 1):
target = Testis-specific serine/threonine-protein kinase 1 (TSSK1B, Homo sapiens, UniProt Q9BXA7); effect on = cell-free assay; method = competition with immobilised ligand; result = 96%
target = Tyrosine-protein kinase ABL1, phosphorylated (ABL1, Homo sapiens, UniProt P00519, M351T); effect on = cell-free assay; method = competition with immobilised ligand; result = 96%
target = Membrane-associated tyrosine- and threonine-specific cdc2-inhibitory kinase (PKMYT1, Homo sapiens, UniProt Q99640); effect on = cell-free assay; method = competition with immobilised ligand; result = 67%
